Measured values of several laboratories.
Protocols differ between the studies behind these lines. Several values in a cell are separate wells, animals, samples, runs or records. ± marks the error that the study gave.

CCCCCCCCCC[N+](C)(C)CCCCCCCCCC — intrinsic clearance (substrate depletion; human liver microsomes; 0.5 µM, 0 to 3 h, 37 °C, together with: NADPH): 0.966 mL/h/mg protein
CNC(=O)c1ccc(-c2cnn3ccc(C(=O)N(C)c4ccc(Cl)c(C(=O)OC)c4)cc23)cc1 — AUC(0-8 h) (Wistar rats, both sexes, plasma; oral, 250 mg/kg/day, day 1, 2-week toxicology study): 5.24 ng·h/mL
CC(C)C[C@H](NC(=O)[C@H](CCC(=O)O)NC(=O)[C@H](CCC(=O)O)NC(=O)[C@H](CC(=O)O)NC(=O)[C@H](CCC(=O)O)NC(=O)[C@H](CCC(=O)O)NC(=O)[C@H](CCC(=O)O)NC(=O)[C@@H](N)CC(=O)O)C(=O)O — concentration (rat, CSF; subcutaneous, 11.0 mg/kg, 30 min): 15.3 ng/mL
CC(=O)N[C@H](CCCCNC(=O)C(C)F)C(=O)N[C@@H](CS)C(=O)N[C@@H](CS)C(=O)N[C@@H](CCC(=O)O)C(=O)N[C@@H](Cc1c[nH]cn1)C(=O)N[C@H](Cc1ccccc1)C(=O)N[C@@H](CCCNC(=N)N)C(=O)N[C@@H](Cc1c[nH]c2ccccc12)C(=O)N[C@@H](CS)C(=O)N[C@@H](CCCNC(=N)N)C(=O)N1CCC[C@H]1C(=O)N[C@H](C(N)=O)C(C)C (stereo partly shown) [fluorine-18 labelled] — tissue uptake (C57BL/6 mice, male, B16-F10 tumour, heart; intravenous, 2 h): 0.31 ± 0.06 %ID/g
COc1c(OCCCN2CCOCC2)ccc2c1N=C(NC(=O)c1cnc(N)nc1)N1CCN=C21 — time to resolution (item: plasma glucose and insulin; patients with advanced cancers; intravenous, dose not given, together with: gemcitabine or cisplatin-gemcitabine): 24 to 48 h
CN[C@@](C)(C[18F])C(=O)O — tissue uptake (SCID mouse MDA-MB-468 xenograft, liver; 60 min, post injection): 4.5 ± 0.4 %ID/g
CCCCCCCCCCCCCCCCCC[N+](C)(C)CCCCCCCCCCCCCCCCCC — hepatic clearance (in vitro-in vivo extrapolation; human): 0.159 mL/h/g liver
CCCCCOc1ccc(-c2ccc(-c3ccc(C(=O)N[C@H]4C[C@@H](O)[C@@H](O)NC(=O)[C@@H]5[C@@H](O)[C@@H](C)CN5C(=O)[C@H]([C@@H](C)O)NC(=O)[C@H]([C@H](O)[C@@H](O)c5ccc(O)cc5)NC(=O)[C@@H]5C[C@@H](O)CN5C(=O)[C@H]([C@@H](C)O)NC4=O)cc3)cc2)cc1 — AUC(0-24) steady state median (patients aged sample B to <sample C years, plasma; intravenous, loading 200 then 100 mg daily): 86300 ng·h/mL
CC[C@H](C)[C@H](NC(=O)[C@H](CC(C)C)NC(=O)[C@H](Cc1c[nH]c2ccccc12)NC(=O)[C@H](CCC(N)=O)NC(=O)[C@@H](NC(=O)[C@H](Cc1ccccc1)NC(=O)[C@H](C)NC(=O)[C@H](CCCCNC(=O)COCCOCCNC(=O)COCCOCCNC(=O)CC[C@H](NC(=O)CCCCCCCCCCCCCCCCCCC(=O)O)C(=O)O)NC(=O)[C@H](CCC(N)=O)NC(=O)[C@H](C)NC(=O)[C@@H](NC(=O)[C@H](CCCCN)NC(=O)[C@H](CC(=O)O)NC(=O)[C@H](CC(C)C)NC(=O)C(C)(C)NC(=O)[C@@H](NC(=O)[C@H](CO)NC(=O)[C@H](Cc1ccc(O)cc1)NC(=O)[C@H](CC(=O)O)NC(=O)[C@H](CO)NC(=O)[C@@H](NC(=O)[C@H](Cc1ccccc1)NC(=O)[C@@H](NC(=O)CNC(=O)[C@H](CCC(=O)O)NC(=O)C(C)(C)NC(=O)[C@@H](N)Cc1ccc(O)cc1)[C@@H](C)O)[C@@H](C)O)[C@@H](C)CC)[C@@H](C)CC)C(C)C)C(=O)N[C@@H](C)C(=O)NCC(=O)NCC(=O)N1CCC[C@H]1C(=O)N[C@@H](CO)C(=O)N[C@@H](CO)C(=O)NCC(=O)N[C@@H](C)C(=O)N1CCC[C@H]1C(=O)N1CCC[C@H]1C(=O)N1CCC[C@H]1C(=O)N[C@@H](CO)C(N)=O — AUClast ratio (humans with end-stage renal disease; subcutaneous, 5 mg; reference: ESRD over normal renal function): 1.13
CSCC[C@@H]1NC(=O)[C@H](CC(=O)O)NC(=O)CNC(=O)[C@H](CCCNC(=N)N)NC(=O)[C@H](C)NC(=O)[C@H](CCC(=O)O)NC(=O)[C@H](CCCNC(=N)N)NC(=O)[C@@H]2CSSC[C@@H]3NC(=O)[C@H](CO)NC(=O)[C@H]([C@@H](C)O)NC(=O)[C@@H]4CCCN4C(=O)[C@H](C)NC(=O)[C@H](Cc4c[nH]c5ccccc45)NC(=O)[C@H](CC(=O)O)NC(=O)CNC(=O)[C@H](CCCNC(=N)N)NC(=O)CNC(=O)[C@H](CCC(N)=O)NC(=O)[C@@H]4CCCN4C(=O)[C@@H](NC(=O)CNC(=O)C(C)F)CSSC[C@H](NC(=O)CNC(=O)[C@H](C)NC(=O)[C@H](CC(C)C)NC(=O)[C@H](CSSC[C@@H](C(=O)NCC(N)=O)NC(=O)[C@H]([C@@H](C)O)NC(=O)[C@H](CCCNC(=N)N)NC(=O)[C@@H]4CCCN4C1=O)NC(=O)[C@H](CC(=O)O)NC(=O)[C@H](CO)NC(=O)[C@H](CC(=O)O)NC(=O)[C@H](CCC(N)=O)NC(=O)[C@H](CO)NC3=O)C(=O)N[C@@H](C(C)C)C(=O)N2 (stereo partly shown) [fluorine-18 labelled] — tissue uptake (nude mice, U-87 MG xenograft, tumor; intravenous, 2.5 h, together with: cyclo(RGDyK) 330 µg coinjected): 0.41 ± 0.12 %ID/g
Cc1cc(C)c(/C=C2\C(=O)Nc3ccccc32)[nH]1 — terminal half-life (human patients without enzyme-inducing anticonvulsants, plasma; intravenous, 145 mg/m^2, week 1): 1.27 ± 0.41 h
O=C(c1ccc(F)c(F)c1Nc1ccc(I)cc1F)N1CC(O)([C@@H]2CCCCN2)C1 — treatment-related adverse events (item: retinal detachment; human patients; oral, dose not given, dose escalation, suspension, grade G3): 0%
O=c1[nH]c(Cc2ccccn2)nc2c1cnn2C1CCOCC1 — Tmax (healthy men, extensive metabolizers, plasma; oral, 100 mg single dose, tablet, median): 0.5 h
COc1ccc(-c2cc(=O)c3c(OC)c(OC)c(OC)cc3o2)cc1 — tissue to peel content ratio (C57BL/6 mouse, male, plasma; oral, 1% w/w in diet, 6 weeks, orange peel extract diet; reference: content in orange peel): 0.046%
Cc1ccc(Nc2nccc(N(C)c3ccc4c(C)n(C)nc4c3)n2)cc1S(N)(=O)=O — Cmin (patients with gastric acid suppression, plasma; oral, 800 mg once daily, 24 h, fasted, first steady state, geometric mean): 23700 ng/mL
CC[C@H](C)[C@H](NC(=O)[C@@H](N)CCCNC(=N)N)C(=O)N[C@H](C(=O)N1CCC[C@H]1C(=O)N[C@@H](C)C(N)=O)C(C)C — Tmax (healthy volunteers, both sexes, plasma; intravenous infusion, 0.15 mg/kg, single ascending dose): 0.0667 h
CCCCCOc1ccc(-c2cc(-c3ccc(C(=O)N[C@H]4C[C@@H](O)[C@@H](O)NC(=O)[C@@H]5[C@@H](O)[C@@H](C)CN5C(=O)[C@H]([C@H](O)CC(N)=O)NC(=O)[C@H]([C@H](O)[C@@H](O)c5ccc(O)c(OS(=O)(=O)O)c5)NC(=O)[C@@H]5C[C@@H](O)CN5C(=O)[C@H]([C@@H](C)O)NC4=O)cc3)no2)cc1 — weight-normalised steady-state clearance (human paediatric patients 6 to sample C years, plasma; intravenous, 4.5 mg/kg once daily, day 7, geometric mean): 0.272 mL/min/kg
CC[C@H](C)[C@H](NC(=O)[C@H](C)NC(=O)[C@H](CCCCN)NC(=O)[C@H](CC(C)C)NC(=O)[C@H](C)NC(=O)[C@@H](NC(=O)[C@H](Cc1c[nH]cn1)NC(=O)[C@H](CC(C)C)NC(=O)[C@@H](NC(=O)[C@@H](NC(=O)[C@H](CCCCN)NC(=O)[C@H](CCCCN)NC(=O)[C@H](C)NC(=O)[C@H](CO)NC(=O)[C@H](CCCCN)NC(=O)[C@H](Cc1ccccc1)NC(=O)[C@@H](NC(=O)[C@H](CCCCN)NC(=O)[C@H](CC(C)C)NC(=O)[C@H](Cc1ccccc1)NC(=O)[C@H](CO)NC(=O)[C@H](CCCCN)NC(=O)[C@H](Cc1c[nH]c2ccccc12)NC(=O)[C@H](CCCCN)NC(C)=O)[C@@H](C)O)[C@@H](C)O)C(C)C)[C@@H](C)O)C(=O)N[C@@H](CO)C(=O)N[C@@H](CO)C(N)=O — mean residue ellipticity (circular dichroism at 222 nm; buffer with 50% TFE; 75 µM, 65 °C): -22800 deg cm² dmol⁻¹
Cc1sc2c(c1C)C(c1ccc(Cl)cc1)=N[C@@H](CC(=O)OC(C)(C)C)c1nnc(C)n1-2 — recovery vs nominal (LC-MS; Ringer's solution; 50 ng/mL, time not given, plastic vessel, low-bind vial): 2.03% and 2.96%
CC(C)C(=O)OC[C@H]1O[C@@H](n2ccc(NO)nc2=O)[C@H](O)[C@@H]1O — remaining compound (rat blood dialysate; 5 ng/mL, 4 weeks, -20 °C, long-term storage, together with: NHC 25 ng/mL): 107.2 ± 0.74%
eremomycin — LD50 (CBA mouse; intravenous, single bolus in 5% glucose): 1530 mg/kg
CSc1ccc(Nc2ccc3c(c2)C(c2ccccc2F)=NC(C)C(=O)N3)cc1 (stereo not shown) — solubility (shake flask; PBS; 24 h, pH 7.4): 3.69 µM
Cc1nc(Nc2ncc(C(=O)Nc3c(C)cccc3Cl)s2)cc(N2CCN(CCO)CC2)n1 — terminal half-life (male C57BL/6 mouse wild type, plasma; intravenous, 10 mg/kg): 3.96 ± 2.33 h
Oc1ccc2ccc3c4ccccc4cc4ccc1c2c43 — AUC (UPLC-AMS; human, plasma; oral, 100 ng of [14C]-BaP): 20.3 ± 18.4 fg BaP equivalents·h/mL
CC(C)C[C@@H](N)C(=O)N[C@H]1C(=O)N[C@@H](CC(N)=O)C(=O)N[C@H]2C(=O)N[C@H]3C(=O)N[C@H](C(=O)N[C@H](C(=O)O)c4cc(O)cc(O)c4-c4cc3ccc4O)[C@H](O)c3ccc(c(Cl)c3)Oc3cc2cc(c3O[C@@H]2O[C@H](CO)[C@@H](O)[C@H](O)[C@H]2O[C@H]2C[C@](C)(N)[C@H](O)[C@H](C)O2)Oc2ccc(cc2Cl)[C@H]1O — AUC(0-24) ratio (New Zealand White rabbit, iris; continuous topical ocular, dose not given, 24 h; reference: eye drops): ~10 fold
CC(C)c1nc(CN(C)C(=O)N[C@H](C(=O)N[C@@H](Cc2ccccc2)C[C@H](O)[C@H](Cc2ccccc2)NC(=O)OCc2cncs2)C(C)C)cs1 — AUC(0-24) (healthy human volunteers, plasma; oral, dose not given, warfarin interaction study; reference: given without warfarin): 11700 ng·h/mL
O=C(NCCS)c1cccc(C(=O)NCCS)c1 — clearance (rat, Sprague-Dawley, male, plasma; intravenous, 1 mg/kg): 14.3 mL/min/kg
[123I]c1cncc(OC[C@@H]2CCN2)c1 — tissue/plasma ratio (SPECT; human, hippocampus; intravenous bolus plus infusion, 7.8 mCi; reference: tissue over plasma): 22.7
COC(=O)N[C@H](C(=O)N1CCC[C@H]1C(=O)Nc1ccc([C@@H]2CC[C@@H](c3ccc(NC(=O)[C@@H]4CCCN4C(=O)[C@@H](NC(=O)OC)C(C)C)cc3)N2c2ccc(C(C)(C)C)cc2)cc1)C(C)C — AUCtau (healthy volunteers; oral, dose not given, without digoxin): 1430 ng·h/mL
NC(=O)c1nc(F)c[nH]c1=O — solubility (UV-Vis spectrophotometry; supercritical CO2; 120 min, 338 K, 21 MPa, 709.69 kg/m^3): 995 µg/mL
O[C@H]1CCCN[C@@H]1CCCn1cnc2c(Cl)c(Cl)ccc21 — MRT (healthy human volunteers, plasma; oral, 50 mg, day 1, multiple ascending dose): 4.7 h
